Measurements from different studies.
Each line is one published result; not all experiments were run side by side. ± gives the spread as reported.
JAK2: Tyrosine-protein kinase JAK2 (JAK2, Homo sapiens, UniProt O60674)
UniProt O60674, sequence (whole entry, looked up): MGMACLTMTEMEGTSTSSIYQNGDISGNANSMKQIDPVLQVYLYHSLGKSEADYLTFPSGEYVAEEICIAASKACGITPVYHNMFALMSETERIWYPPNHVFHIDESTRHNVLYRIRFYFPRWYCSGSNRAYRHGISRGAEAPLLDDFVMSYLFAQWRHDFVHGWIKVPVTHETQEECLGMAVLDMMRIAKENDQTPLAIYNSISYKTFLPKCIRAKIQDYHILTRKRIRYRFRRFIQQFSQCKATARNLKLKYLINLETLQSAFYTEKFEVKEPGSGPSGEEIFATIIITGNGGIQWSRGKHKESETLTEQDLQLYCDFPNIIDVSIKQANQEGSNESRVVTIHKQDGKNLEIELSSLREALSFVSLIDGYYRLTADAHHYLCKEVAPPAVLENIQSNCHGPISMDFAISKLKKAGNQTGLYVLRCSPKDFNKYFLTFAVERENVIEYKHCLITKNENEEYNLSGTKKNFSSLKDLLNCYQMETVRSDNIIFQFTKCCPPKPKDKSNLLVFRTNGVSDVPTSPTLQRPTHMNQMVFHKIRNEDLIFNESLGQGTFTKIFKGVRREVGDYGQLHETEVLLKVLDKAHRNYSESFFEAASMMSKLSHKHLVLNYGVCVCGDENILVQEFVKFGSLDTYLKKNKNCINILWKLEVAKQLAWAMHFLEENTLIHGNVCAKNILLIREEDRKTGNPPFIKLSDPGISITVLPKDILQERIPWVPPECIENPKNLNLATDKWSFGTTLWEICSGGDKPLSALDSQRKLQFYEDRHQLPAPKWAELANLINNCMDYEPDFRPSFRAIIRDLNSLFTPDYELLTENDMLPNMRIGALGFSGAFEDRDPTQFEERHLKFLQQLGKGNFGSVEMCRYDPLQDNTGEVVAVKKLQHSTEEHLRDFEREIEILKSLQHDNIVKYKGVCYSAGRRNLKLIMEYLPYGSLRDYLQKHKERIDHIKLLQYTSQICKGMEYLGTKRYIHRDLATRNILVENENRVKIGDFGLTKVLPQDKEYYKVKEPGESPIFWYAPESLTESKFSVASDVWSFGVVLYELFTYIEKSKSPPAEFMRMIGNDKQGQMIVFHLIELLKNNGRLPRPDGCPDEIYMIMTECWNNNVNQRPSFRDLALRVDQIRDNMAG
UniProt P47811, sequence (whole entry, looked up): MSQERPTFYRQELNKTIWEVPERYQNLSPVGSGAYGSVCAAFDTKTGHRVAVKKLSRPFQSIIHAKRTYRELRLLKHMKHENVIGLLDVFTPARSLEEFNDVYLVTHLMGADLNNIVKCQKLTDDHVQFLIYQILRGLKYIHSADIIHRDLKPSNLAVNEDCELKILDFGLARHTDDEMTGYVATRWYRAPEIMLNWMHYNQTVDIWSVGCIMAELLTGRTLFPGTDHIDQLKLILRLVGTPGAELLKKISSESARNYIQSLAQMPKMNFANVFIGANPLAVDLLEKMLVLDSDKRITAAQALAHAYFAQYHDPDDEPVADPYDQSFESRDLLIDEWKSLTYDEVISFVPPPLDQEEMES
UniProt P29323, sequence (whole entry, looked up): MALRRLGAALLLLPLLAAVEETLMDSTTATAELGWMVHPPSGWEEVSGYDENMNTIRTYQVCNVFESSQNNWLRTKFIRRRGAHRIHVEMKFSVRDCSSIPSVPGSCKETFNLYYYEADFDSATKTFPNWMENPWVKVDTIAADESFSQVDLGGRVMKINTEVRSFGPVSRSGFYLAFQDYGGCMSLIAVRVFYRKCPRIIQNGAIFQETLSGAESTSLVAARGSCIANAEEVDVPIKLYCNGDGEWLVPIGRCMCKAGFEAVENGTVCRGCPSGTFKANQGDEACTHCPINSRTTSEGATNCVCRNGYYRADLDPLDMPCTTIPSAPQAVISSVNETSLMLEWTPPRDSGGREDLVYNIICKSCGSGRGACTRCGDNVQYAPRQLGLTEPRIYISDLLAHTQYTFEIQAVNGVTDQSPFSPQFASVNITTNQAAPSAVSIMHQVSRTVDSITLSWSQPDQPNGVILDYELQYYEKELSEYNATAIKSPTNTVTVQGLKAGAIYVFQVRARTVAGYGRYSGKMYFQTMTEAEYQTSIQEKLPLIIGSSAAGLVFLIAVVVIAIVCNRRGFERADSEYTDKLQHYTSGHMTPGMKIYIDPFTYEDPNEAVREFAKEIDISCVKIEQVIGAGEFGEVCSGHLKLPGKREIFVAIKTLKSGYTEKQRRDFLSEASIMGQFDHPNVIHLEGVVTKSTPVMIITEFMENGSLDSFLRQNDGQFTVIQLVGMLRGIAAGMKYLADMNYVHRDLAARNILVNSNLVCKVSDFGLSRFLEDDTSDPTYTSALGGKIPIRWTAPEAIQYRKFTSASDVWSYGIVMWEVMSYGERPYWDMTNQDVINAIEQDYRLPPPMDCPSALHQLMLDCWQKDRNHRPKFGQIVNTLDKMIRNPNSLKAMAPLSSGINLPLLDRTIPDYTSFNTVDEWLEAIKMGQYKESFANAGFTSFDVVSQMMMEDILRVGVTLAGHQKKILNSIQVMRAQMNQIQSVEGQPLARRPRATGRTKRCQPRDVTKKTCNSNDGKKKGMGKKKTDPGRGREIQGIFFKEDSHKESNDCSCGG
UniProt P22455, sequence (whole entry, looked up): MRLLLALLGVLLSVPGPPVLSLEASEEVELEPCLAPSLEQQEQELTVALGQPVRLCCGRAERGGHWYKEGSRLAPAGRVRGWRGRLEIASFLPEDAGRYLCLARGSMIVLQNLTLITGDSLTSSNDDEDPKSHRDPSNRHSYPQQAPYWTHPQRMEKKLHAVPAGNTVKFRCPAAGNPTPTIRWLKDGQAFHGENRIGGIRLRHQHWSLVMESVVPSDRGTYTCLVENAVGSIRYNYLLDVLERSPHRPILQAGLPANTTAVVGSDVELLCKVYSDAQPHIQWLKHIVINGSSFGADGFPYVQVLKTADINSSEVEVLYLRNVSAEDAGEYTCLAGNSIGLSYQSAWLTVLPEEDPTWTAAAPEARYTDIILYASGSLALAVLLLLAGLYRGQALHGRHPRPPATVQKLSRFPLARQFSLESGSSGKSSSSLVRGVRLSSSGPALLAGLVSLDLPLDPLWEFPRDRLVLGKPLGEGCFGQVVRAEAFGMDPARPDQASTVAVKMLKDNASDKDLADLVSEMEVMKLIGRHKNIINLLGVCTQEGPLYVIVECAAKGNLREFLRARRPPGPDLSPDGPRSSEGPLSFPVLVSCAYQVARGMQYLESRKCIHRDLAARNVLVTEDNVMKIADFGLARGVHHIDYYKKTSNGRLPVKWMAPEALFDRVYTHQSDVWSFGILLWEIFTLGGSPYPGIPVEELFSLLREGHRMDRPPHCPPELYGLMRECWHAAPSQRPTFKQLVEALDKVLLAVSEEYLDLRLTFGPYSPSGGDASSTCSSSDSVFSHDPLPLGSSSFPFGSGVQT
UniProt P22411, sequence (whole entry, looked up): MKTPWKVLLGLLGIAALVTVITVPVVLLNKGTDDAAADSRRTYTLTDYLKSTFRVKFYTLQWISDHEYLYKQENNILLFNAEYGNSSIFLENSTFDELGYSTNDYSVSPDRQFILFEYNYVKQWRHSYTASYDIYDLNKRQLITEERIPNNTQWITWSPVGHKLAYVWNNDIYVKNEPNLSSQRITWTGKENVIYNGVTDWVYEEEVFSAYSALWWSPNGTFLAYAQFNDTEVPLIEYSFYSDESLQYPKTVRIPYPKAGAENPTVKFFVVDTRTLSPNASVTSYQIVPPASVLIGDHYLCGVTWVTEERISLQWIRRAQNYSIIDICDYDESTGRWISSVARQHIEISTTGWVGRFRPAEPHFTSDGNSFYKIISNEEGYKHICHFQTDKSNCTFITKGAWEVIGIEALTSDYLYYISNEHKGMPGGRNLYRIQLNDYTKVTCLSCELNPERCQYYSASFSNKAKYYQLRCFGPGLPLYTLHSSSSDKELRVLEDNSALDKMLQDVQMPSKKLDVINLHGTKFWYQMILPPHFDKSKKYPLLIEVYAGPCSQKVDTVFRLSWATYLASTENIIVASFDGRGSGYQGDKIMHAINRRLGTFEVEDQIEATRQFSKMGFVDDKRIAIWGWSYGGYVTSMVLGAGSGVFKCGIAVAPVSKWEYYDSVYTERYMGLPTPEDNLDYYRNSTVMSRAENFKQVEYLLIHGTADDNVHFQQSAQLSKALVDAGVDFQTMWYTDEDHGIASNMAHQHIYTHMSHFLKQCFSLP
UniProt A0A1D3TGZ2, sequence (whole entry, looked up): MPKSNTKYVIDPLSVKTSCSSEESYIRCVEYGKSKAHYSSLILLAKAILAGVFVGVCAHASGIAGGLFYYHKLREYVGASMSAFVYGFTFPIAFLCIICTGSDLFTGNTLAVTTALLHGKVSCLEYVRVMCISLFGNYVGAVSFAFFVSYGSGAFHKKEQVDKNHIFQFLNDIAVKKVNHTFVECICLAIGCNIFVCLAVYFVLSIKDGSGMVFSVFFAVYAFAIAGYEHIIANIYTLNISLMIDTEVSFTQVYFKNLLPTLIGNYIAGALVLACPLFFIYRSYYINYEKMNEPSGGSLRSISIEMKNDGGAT
UniProt P28161, sequence (whole entry, looked up): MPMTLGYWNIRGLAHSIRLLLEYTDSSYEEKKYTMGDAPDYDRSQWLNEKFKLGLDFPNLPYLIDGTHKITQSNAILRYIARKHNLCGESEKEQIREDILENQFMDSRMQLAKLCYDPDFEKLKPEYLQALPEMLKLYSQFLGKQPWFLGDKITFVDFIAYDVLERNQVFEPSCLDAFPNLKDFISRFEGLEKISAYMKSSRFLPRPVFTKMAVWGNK
UniProt P21761, sequence (whole entry, looked up): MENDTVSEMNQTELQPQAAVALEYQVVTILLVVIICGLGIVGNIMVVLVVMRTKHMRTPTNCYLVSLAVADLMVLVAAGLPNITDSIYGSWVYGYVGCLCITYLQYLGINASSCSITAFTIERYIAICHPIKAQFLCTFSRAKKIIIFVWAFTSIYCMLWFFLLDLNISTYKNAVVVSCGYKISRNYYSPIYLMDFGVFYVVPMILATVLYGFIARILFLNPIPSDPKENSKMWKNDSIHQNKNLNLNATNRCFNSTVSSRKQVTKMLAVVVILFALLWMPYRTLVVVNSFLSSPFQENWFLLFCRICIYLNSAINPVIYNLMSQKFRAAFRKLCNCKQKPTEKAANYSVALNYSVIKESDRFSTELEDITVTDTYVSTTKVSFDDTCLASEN

Structure (SMILES)	target	test	system	setting	IC50
Nc1ncnc2c1ncn2CCOCP(=O)(O)OP(=O)(O)OP(=O)(O)O	Gag-Pol polyprotein, reverse transcriptase (gag-pol, Human immunodeficiency virus 1, UniProt P03366)	reverse transcriptase activity, inhibitor	–	–	6400 ± 800 nM
COc1cc(OC)c2c(c1)C(=O)c1cc3oc(=O)cc(-c4ccccc4)c3c(O)c1C2=O	mushroom tyrosinase	enzyme activity	–	with: L-DOPA	78.02 ± 0.49 µg/mL
COc1ccc(C(=O)/C=C(\O)C(F)(F)C(F)(F)F)c(O)c1	Formate-nitrite transporter (FNT, Plasmodium ovale, UniProt A0A1D3TGZ2)	L-lactate transport, inhibitor	yeast	pH 6.8, with: 14C-L-lactate 1 mM	160 ± 10 nM
COc1cc(Cc2c[nH]c3ncc(C(F)(F)F)cc23)cc(OC)c1	FGFR4 (Homo sapiens, UniProt P22455)	enzyme activity, inhibitor	–	–	712 nM
COc1ccc(-c2cn(C)c3ncnc(N)c23)cc1	FGFR2 (Homo sapiens, UniProt P21802)	Caliper mobility shift	–	30 min preincubation, with: 100 µM ATP	1600 nM
NS(=O)(=O)c1ccc(-n2cc(CNc3ccc(F)cc3)c(-c3ccc(OCc4ccccc4)cc3)n2)cc1	PTGS1 (Homo sapiens, UniProt P23219)	enzyme activity, inhibitor, absorbance	–	–	63800 nM
C=C(NC(=O)C(=C)NC(=O)c1csc(C2=NC3c4csc(n4)C4NC(=O)c5csc(n5)C(C(C)(O)C(C)O)NC(=O)C5CSC(=N5)C(=CC)NC(=O)C(C(C)O)NC(=O)c5csc(n5)C3(CC2)NC(=O)C(CCSC)NC(=O)C(=C)NC(=O)C(C)NC(=O)C(C(C)CC)NC2C=Cc3c(C(C)O)cc(nc3C2O)C(=O)OC4C)n1)C(N)=O (stereo not drawn)	Proteasome subunit beta type-7, in 20S proteasome (PSMB7, Homo sapiens, UniProt Q99436)	trypsin-like activity, inhibitor	purified 20S proteasome	15 min preincubation, 37 °C, with: Boc-Leu-Arg-Arg-AMC substrate	> 590 nM
CNC(=O)C1CCN(c2cc(C)ccc2NC(=O)c2ccc(-c3cc(O)ccc3C)c(C)c2)CC1	YES1 (Homo sapiens, UniProt P07947)	target engagement in cells, BRET	–	–	9400 nM
N#C/C(=C\c1cccc(-c2cccc3[nH]ncc23)c1)C(N)=O	JAK2	kinase activity, inhibitor	–	up to highest tested, with: ATP at Km	> 10000 nM
CC[C@H](C)[C@H](NC(=O)CNC(=O)[C@H](CC(=O)O)NC(=O)[C@H](CO)NC(=O)Cc1cccnc1)C(=O)N[C@@H](Cc1ccccc1)C(=O)N[C@H](C(=O)N[C@@H](CC(=O)O)C(=O)N[C@@H](CO)C(=O)N[C@@H](Cc1ccc(O)cc1)C(=O)N[C@@H](CO)C(=O)N[C@@H](CCCNC(=N)N)C(=O)N[C@@H](Cc1ccc(O)cc1)C(=O)N[C@@H](CCCNC(=N)N)C(=O)N[C@@H](CCCCN)C(=O)N[C@@H](CCC(N)=O)C(=O)N[C@@H](CCSC)C(=O)N[C@@H](C)C(=O)N[C@H](C(=O)N[C@@H](CCCCN)C(=O)N[C@@H](CCCCN)C(=O)N[C@@H](C)C(=O)N[C@@H](CC(C)C)C(=O)N[C@@H](C)C(=O)N[C@@H](C)C(=O)N[C@H](C(=O)N[C@@H](CC(C)C)C(=O)NCC(=O)N[C@@H](CCCCN)C(=O)N[C@@H](CCCNC(=N)N)C(=O)N[C@@H](Cc1ccc(O)cc1)C(=O)N[C@@H](CCCCN)C(=O)N[C@@H](CCC(N)=O)C(=O)N[C@@H](CCCNC(=N)N)C(=O)N[C@H](C(=O)N[C@@H](CCCCN)C(=O)N[C@@H](CC(N)=O)C(=O)N[C@@H](CCCCN)C(N)=O)C(C)C)C(C)C)C(C)C)[C@@H](C)O	ADCYAP1R1 (Homo sapiens, UniProt P41586)	ligand displacement, radioligand	–	–	83.2 nM
CC(=O)NCCN(CC(=O)NCCN(CC(=O)NCCN(CC(=O)NCCC(N)=O)C(=O)[C@@H](N)CCCNC(=N)N)C(=O)[C@@H](N)Cc1ccccc1)C(=O)[C@@H](N)Cc1ccccc1	HIV-1 TAR RNA	Tat/TAR complex displacement, FRET	–	room temperature, with: 10 nM Tat/TAR complex	103800 ± 400 nM
CCc1nc2cc(C)c(Oc3ccc(OC(F)(F)F)cc3)cc2c(O)c1C	cytochrome b (Musca domestica, UniProt A0A0P0LY28)	succinate-cytochrome c oxidoreductase activity, inhibitor	Musca domestica, mitochondria	4 min preincubation, 30 °C	5 nM
CCN(CC)c1ccc(/C=C/C(=O)C(c2ccccc2)c2ccccc2)cc1	Seed linoleate 13S-lipoxygenase-1 (Glycine max, UniProt P08170)	enzyme activity, inhibitor, absorbance	–	–	45500 nM
O=c1c(O)c(-c2ccc(O)cc2O)oc2cc(O)cc(O)c12	CD38 (Homo sapiens, UniProt P28907)	hydrolase activity, fluorometric	–	with: ε-NAD+ substrate	> 100000 nM
COc1cc(O)c2c(=O)cc(-c3ccccc3)oc2c1	DPP4 (Sus scrofa, UniProt P22411)	enzyme activity, inhibitor, absorbance	–	–	> 186000 nM
CC(C)C[C@H](NC(=O)[C@H](CC(N)=O)NC(=O)[C@H](CC(C)C)NC(=O)[C@@H](NC(=O)[C@@H](NC(=O)[C@@H]1CCCN1C(=O)[C@H](CCCNC(=N)N)NC(=O)[C@H](CCCCN)NC(=O)[C@@H]1CCCN1)[C@@H](C)O)[C@@H](C)O)C(=O)N[C@@H](Cc1ccccc1)C(=O)NCCCCCC(=O)N[C@@H](CCCNC(=N)N)C(=O)N[C@@H](CCCNC(=N)N)C(=O)N[C@@H](CCCNC(=N)N)C(=O)N[C@@H](CCCNC(=N)N)C(=O)N[C@@H](CCCNC(=N)N)C(=O)N[C@@H](CCCNC(=N)N)C(=O)N[C@@H](CCCNC(=N)N)C(=O)N[C@@H](CCCNC(=N)N)C(=O)N[C@@H](CCCNC(=N)N)C(N)=O	Mapk14 (Mus musculus, UniProt P47811)	enzyme activity, inhibitor, radiometric	–	pH 7.5	14100 nM
O=S(=O)(c1ccccc1)n1cnc2ncncc21	HSD17B10 (Homo sapiens, UniProt Q99714)	inhibitor	–	–	~1000 nM
NC(=O)[C@@H]1CCCN1C(=O)[C@H](Cc1cn(Cc2ccccc2)cn1)NC(=O)c1cnccn1	Thyrotropin-releasing hormone receptor (Mus musculus, UniProt P21761)	ligand displacement, radioligand	–	–	> 50000 nM
CCc1ccc2nc(-c3cc(-c4cnn(C5CCNCC5)c4)cnc3N)oc2c1O	JAK2	enzyme activity, inhibitor, TR-FRET	–	–	2400 nM
COc1cccc2[nH]cc(-c3nc4ccccc4[nH]c3=O)c12	JAK2	enzyme activity, inhibitor, ADP detection	–	–	19.8 nM
CN1CCN(C)[C@H](CCN2CC[C@H](c3ccc(F)cc3)C2)C1	IDH1 (Homo sapiens, UniProt O75874)	enzyme activity, inhibitor, absorbance	–	–	95000 nM
CNC(=O)C1CCN(c2cc(C)c(F)cc2NC(=O)c2ccc(-c3cc(O)ccc3C)c(C)c2)CC1	EPHB2 (Homo sapiens, UniProt P29323)	target engagement in cells, BRET	–	–	69.9 nM
CCC(CSCC(NC(=O)CCC(N)C(=O)O)C(=O)NCC(=O)O)C(=O)c1ccc(OCC(=O)NCCCCNC(=O)COc2ccc(C(=O)C(CC)CSCC(NC(=O)CCC(N)C(=O)O)C(=O)NCC(=O)O)c(Cl)c2Cl)c(Cl)c1Cl (stereo not drawn)	Glutathione S-transferase Mu 2 (Homo sapiens, UniProt P28161)	enzyme activity, inhibitor, CDNB-GSH conjugation	–	preincubation 5.0 min with enzyme, with: CDNB, GSH	~5.5 nM
O=c1c(-c2cccnc2)c[nH]n1-c1cc(C(F)(F)F)ccn1	EGLN2 (Homo sapiens, UniProt Q96KS0)	enzyme activity, inhibitor, europium VBC binding	–	10 µM FeSO4, 2 mM ascorbate, with: 20 µM 2-oxoglutarate	1900 nM
CC(C)(C)NCCCNC(=O)c1ccnc(C(F)(F)F)c1	PHF23 (Homo sapiens, UniProt Q9BUL5)	methyl-lysine reader binding, inhibitor, AlphaScreen	–	–	> 100000 nM
COc1cc(OC)cc(-c2nc3ccc(C(=O)NCCCN4CCN(c5cccc(C)c5C)CC4)cc3n2C2CCC2)c1	ACVR1 (Homo sapiens, UniProt Q04771)	target engagement in cells, BRET	–	–	4720 nM
O=C(c1cccc(Br)c1)N1CCN(c2ccc(F)cc2)CC1	SEC14 (Saccharomyces cerevisiae, UniProt P24280)	enzyme activity, inhibitor, radiometric	–	–	> 100000 nM
C[C@@H](c1ccn(Cc2ccc(Cl)cc2Cl)n1)[C@](O)(Cn1cnnn1)c1ccc(F)cc1F	CYP2C19 (Homo sapiens, UniProt P33261)	enzyme activity, inhibitor	human, liver microsomes	–	634 nM
CC1OC(Oc2c(-c3ccc(O)cc3)oc3cc(O)cc(O)c3c2=O)C(OC(=O)C=Cc2ccc(O)cc2)C(O)C1OC(=O)C=Cc1ccc(O)cc1 (stereo not drawn)	CCR8 (Homo sapiens, UniProt P51685)	calcium flux, antagonist	293FT GCaMP6 transfected	–	> 1000 nM
O=c1nc2[nH]nc(-c3cc(Br)ccc3F)nc-2c(=O)[nH]1	TPR (Trypanosoma brucei brucei, UniProt P39051)	inhibitor, DTNB-coupled colourimetric	–	with: substrate at Km	92000 nM

A few entries again:
Structure (SMILES)	target	test	system	setting	IC50
O=c1c(-c2cccnc2)c[nH]n1-c1cc(C(F)(F)F)ccn1	EGLN2 (Homo sapiens, UniProt Q96KS0)	enzyme activity, inhibitor, europium VBC binding	–	10 µM FeSO4, 2 mM ascorbate, with: 20 µM 2-oxoglutarate	1900 nM
CC(C)(C)NCCCNC(=O)c1ccnc(C(F)(F)F)c1	PHF23 (Homo sapiens, UniProt Q9BUL5)	methyl-lysine reader binding, inhibitor, AlphaScreen	–	–	> 100000 nM
COc1cc(OC)cc(-c2nc3ccc(C(=O)NCCCN4CCN(c5cccc(C)c5C)CC4)cc3n2C2CCC2)c1	ACVR1 (Homo sapiens, UniProt Q04771)	target engagement in cells, BRET	–	–	4720 nM
